# Measured values pooled from the literature.
# Compare with care: the assays were run in different laboratories. Values joined by “and” are separate records of one study, mostly repeats; a detail may differ.
# Read-out: metabolic stability
Compound,species,sample,concentration,pH,half-life
CNC(=O)C1CCN(c2cc(C)c(F)cc2NC(=O)c2ccc(-c3cc(O)ccc3C)c(C)c2)CC1,mouse,liver microsomes,2 µM,,> 25 min
O=C(O)c1ccc(/C=C2\SC(=S)N(Cc3cccc(C(F)(F)F)c3)C2=O)cc1,mouse,liver microsomes,1 µM,,> 145 min
CO[C@@H](C(N)=O)[C@H](NC(=O)c1ccc(NC(=O)c2ccc([N+](=O)[O-])cc2)cc1)C(=O)Nc1ccc(C(=O)Nc2ccc(C(=O)Nc3ccc(C(=O)O)cc3)c(O)c2OC(C)C)cc1,mouse,hepatocytes,,,117 min
C#Cc1cccc(Nc2ncnc3cc(OC)c(OCCCN4CCOCC4)cc23)c1,mouse,liver microsomes,1 µM,pH 7.4,7.01 min
CCN(c1nc(N[C@H](CC(N)=O)C(=O)NC)nc(N2CCN(c3ccccc3C#N)CC2)n1)C1CCCCC1,mouse,liver microsomes,,,114 min
CC(C)CCN(c1nc(C#N)nc(NC2COC2)n1)C(C)c1ccc(F)cc1 (centres unmarked),mouse,liver microsomes,,,5 min
Cc1nc(-c2ccc(NC(=O)c3cccs3)cc2Cl)no1,mouse,liver microsomes,,,41.4 min
N#Cc1nc(N2CCOCC2)nc(N(Cc2ccc(F)cc2)CC2CCCOC2)n1 (centres unmarked),mouse,liver microsomes,,,3.5 min
CNC(=O)C1CCN(c2cc(C)ccc2NC(=O)c2ccc(-c3cc(O)ccc3C)c(C)c2)CC1,mouse,liver microsomes,2 µM,,10 min
N#Cc1nc(N2CCOCC2)nc(N(Cc2ccc(F)cc2)CC2CCCCC2)n1,mouse,liver microsomes,,,15 min
COc1cc(-c2nc3ccc(C(=O)NCCCN(C)C)cc3n2C2CCC2)cc(OC)c1OC,mouse,liver microsomes,,,505 min
Oc1cc2nc(c1)CNCc1cc(O)cc(n1)CNC2,mouse,hepatocytes,,,> 240 min
CNC(=O)C1CCN(c2cc(C)c(F)cc2NC(=O)c2ccc(-c3c(C)ccc4[nH]ncc34)c(C)c2)CC1,mouse,liver microsomes,2 µM,,> 25 min
COc1cc(F)cc(-c2nc3ccc(C(=O)NCCCN(C)C)cc3n2C2CCC2)c1,mouse,liver microsomes,,,78.5 min
O=C(c1cc2ccc(Cl)cc2s1)N(c1ccc(OCCN2CCCC2)cc1)c1ccc(OCCN2CCCC2)cc1,female mouse,liver microsomes,,,> 40 min
O=C(Cc1ccccc1)Nc1nc2ccccc2n1Cc1ccccc1,mouse,liver microsomes,,,12.9 min and 13 min
CCC(CC)CNC(=N)NC(=N)NCCCCCCNC(=N)NC(=N)NCC(CC)CC,mouse,hepatocytes,1 µM,,129 min
COc1cc(-c2nc3ccc(C(=O)NCCCN4CCN(c5ccccn5)CC4)cc3n2C2CCC2)cc(OC)c1OC,mouse,liver microsomes,,,3.3 min
CN(C)C(=O)c1ccnc(N2Cc3cn(Cc4ccc(F)cc4)nc3C2)n1,mouse,liver microsomes,,,105 min
CC(C)n1ncc2c(C(=O)NCCN(C)C)cc(C3CC3)nc21,mouse,liver microsomes,,,21.3 min
